{"data": "Experimental data collected from several papers", "U2AF2": "U2AF2 148-342 (Homo sapiens, UniProt P26368)", "B1": "PP2A activator (human); sequence looked up; chain AEGERQPPPDSSEEAPPATQNFIIPKKEIHTVPDMGKWKRSQAYADYIGFILTLNEGVKGKKLTFEYRVSEMWNEVHEEKEQAAKQSVSCDECIPLPRAGHCAPSEAIEKLVALLNTLDRWIDETPPVDQPSRFGNKAYRTWYAKLDEEAENLVATVVPTHLAAAVPEVAVYLKESVGNSTRIDYGTGHEAAFAAFLCCLCKIGVLRVDDQIAIVFKVFNRYLEVMRKLQKTYRMEPAGSQGVWGLDDFQFLPFIWGSSQLIDHPYLEPRHFVDEKAVNENHKDYMFLECILFITEMKTGPFAEHSNQLWNISAVPSWSKVNQGLIRMYKAECLEKFPVIQHFKFGSLLPIHPVTSG", "B2": "peripherin, human; sequence looked up; chain MSHHPSGLRAGFSSTSYRRTFGPPPSLSPGAFSYSSSSRFSSSRLLGSASPSSSVRLGSFRSPRAGAGALLRLPSERLDFSMAEALNQEFLATRSNEKQELQELNDRFANFIEKVRFLEQQNAALRGELSQARGQEPARADQLCQQELRELRRELELLGRERDRVQVERDGLAEDLAALKQRLEEETRKREDAEHNLVLFRKDVDDATLSRLELERKIESLMDEIEFLKKLHEEELRDLQVSVESQQVQQVEVEATVKPELTAALRDIRAQYESIAAKNLQEAEEWYKSKYADLSDAANRNHEALRQAKQEMNESRRQIQSLTCEVDGLRGTNEALLRQLRELEEQFALEAGGYQAGAARLEEELRQLKEEMARHLREYQELLNVKMALDIEIATYRKLLEGEESRISVPVHSFASLNIKTTVPEVEPPQDSHSRKTVLIKTIETRNGEVVTESQKEQRSELDKSSAHSY", "B3": "human ADP/ATP translocase 4; sequence looked up; chain MHREPAKKKAEKRLFDASSFGKDLLAGGVAAAVSKTAVAPIERVKLLLQVQASSKQISPEARYKGMVDCLVRIPREQGFFSFWRGNLANVIRYFPTQALNFAFKDKYKQLFMSGVNKEKQFWRWFLANLASGGAAGATSLCVVYPLDFARTRLGVDIGKGPEERQFKGLGDCIMKIAKSDGIAGLYQGFGVSVQGIIVYRASYFGAYDTVKGLLPKPKKTPFLVSFFIAQVVTTCSGILSYPFDTVRRRMMMQSGEAKRQYKGTLDCFVKIYQHEGISSFFRGAFSNVLRGTGGALVLVLYDKIKEFFHIDIGGR", "B4": "ATP synthase subunit O, human; sequence looked up; chain FAKLVRPPVQVYGIEGRYATALYSAASKQNKLEQVEKELLRVAQILKEPKVAASVLNPYVKRSIKVKSLNDITAKERFSPLTTNLINLLAENGRLSNTQGVVSAFSTMMSVHRGEVPCTVTSASPLEEATLSELKTVLKSFLSQGQVLKLEAKTDPSILGGMIVRIGEKYVDMSVKTKIQKLGRAMREIV", "B5": "sequence looked up; chain SLKVAPKVKATAAPAGAPPQPQDLEFTKLPNGLVIASLENYSPVSRIGLFIKAGSRYEDFSNLGTTHLLRLTSSLTTKGASSFKITRGIEAVGGKLSVTATRENMAYTVECLRGDVDILMEFLLNVTTAPEFRRWEVADLQPQLKIDKAVAFQNPQTHVIENLHAAAYRNALANPLYCPDYRIGKVTSEELHYFVQNHFTSARMALIGLGVSHPVLKQVAEQFLNMRGGLGLSGAKANYRGGEIREQNGDSLVHAAFVAESAVAGSAEANAFSVLQHVLGAGPHVKRGSNTTSHLHQAVAKATQQPFDVSAFNASYSDSGLFGIYTISQATAAGDVIKAAYNQVKTIAQGNLSNTDVQAAKNKLKAGYLMSVESSECFLEEVGSQALVAGSYMPPSTVLQQIDSVANADIINAAKKFVSGQKSMAASGNLGHTPFVDEL", "note": "Lines come from different studies, so protocols differ. ± gives the spread as reported.", "chain of UniProt P26368 (whole entry, looked up)": "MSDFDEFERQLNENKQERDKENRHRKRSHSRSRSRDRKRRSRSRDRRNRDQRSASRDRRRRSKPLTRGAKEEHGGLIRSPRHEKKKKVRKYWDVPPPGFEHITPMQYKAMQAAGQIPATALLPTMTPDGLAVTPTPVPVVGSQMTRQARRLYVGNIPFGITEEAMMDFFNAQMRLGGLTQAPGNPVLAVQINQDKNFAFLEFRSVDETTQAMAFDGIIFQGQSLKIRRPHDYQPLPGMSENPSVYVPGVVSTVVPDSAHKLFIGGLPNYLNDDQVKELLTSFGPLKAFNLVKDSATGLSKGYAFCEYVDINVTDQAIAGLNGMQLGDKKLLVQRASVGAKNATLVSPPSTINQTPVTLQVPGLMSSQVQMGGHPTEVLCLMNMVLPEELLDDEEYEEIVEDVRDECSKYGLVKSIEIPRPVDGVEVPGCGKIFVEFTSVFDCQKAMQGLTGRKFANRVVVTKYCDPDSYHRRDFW", "chain of UniProt P13393 (whole entry, looked up)": "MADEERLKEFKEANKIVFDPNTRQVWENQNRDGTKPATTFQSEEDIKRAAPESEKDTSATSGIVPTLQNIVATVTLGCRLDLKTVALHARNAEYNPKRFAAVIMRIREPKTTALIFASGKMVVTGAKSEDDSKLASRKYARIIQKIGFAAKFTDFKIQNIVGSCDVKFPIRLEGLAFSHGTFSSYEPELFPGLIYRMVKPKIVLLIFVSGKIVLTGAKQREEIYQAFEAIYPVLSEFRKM"}
{"Substance": "insulin", "test": "LC-MS/MS", "system": "spiked human serum", "setting": "10.83 ng/mL, 4 h, room temperature", "how to read": "relative to: untreated control", "measurement": "bias", "result": "-7.1%"}
{"Substance": "B1 (PP2A activator)", "target or system": "CYB5R4 knockout human cells", "test": "PP4 interaction, 3xFLAG-PP4C IP-MS", "setting": "concentration not given", "how to read": "relative to: CYB5R4 KO over parental", "measurement": "log2 fold change", "result": 3.4}
{"Substance": "MVDPIGLNY", "target or system": "Jurkat expressing engineered TCR", "test": "NFAT-eGFP reporter, fluorescence microscopy", "system": "peptide", "setting": "concentration not given, HLA-A*01:01 on EL4 cells", "measurement": "GFP-positive cells", "result": "0.444%"}
{"Substance": "B2 (peripherin, human)", "target or system": "CYB5R4 knockout human cells", "test": "PP6 interaction, 3xFLAG-PP6C IP-MS", "setting": "concentration not given", "how to read": "relative to: CYB5R4 KO over parental", "measurement": "log2 fold change", "result": -0.62}
{"Substance": "Peginesatide", "target or system": "UT7/EPO", "test": "tyrosine phosphorylation, LC-MS/MS phosphoproteomics, trypsin, item: PLCG1 tyrosine 783", "setting": "10 nM, 15 min, with: 10 U/mL EPO", "how to read": "relative to: vehicle", "measurement": "phosphorylation level", "result": "12.6 fold"}
{"Substance": "PFVYLIRFHRFHRFHGGGSSSQLSRP", "target or system": "C57BL/6J mouse bone marrow-derived macrophages", "test": "siRNA delivery, flow cytometry", "system": "peptide", "setting": "dose not given, 6 h, peptide-siRNA nanoparticles, with: Cy5-siRNA", "measurement": "transfection efficiency", "result": "92%"}
{"Substance": "YIDILGLAY", "target or system": "Jurkat expressing engineered TCR", "test": "NFAT-eGFP reporter, fluorescence microscopy", "system": "peptide", "setting": "concentration not given, HLA-A*01:01 on EL4 cells", "measurement": "GFP-positive cells", "result": "0.479%"}
{"Substance": "B3 (human ADP/ATP translocase 4)", "target or system": "CYB5R4 knockout human cells", "test": "PP4 interaction, 3xFLAG-PP4C IP-MS", "setting": "concentration not given", "how to read": "relative to: CYB5R4 KO over parental", "measurement": "log2 fold change", "result": -0.79}
{"Substance": "MTVCNASQRQAHAQATAVSL", "target or system": "H157 lung squamous carcinoma", "test": "phage binding output/input", "system": "peptide", "how to read": "relative to: control phage", "measurement": "selectivity ratio", "result": "3.2 ± 2.7"}
{"Substance": "UUGUUUUGC (ssRNA)", "target or system": "U2AF2", "test": "sequencing of bound RNA", "system": "RNA", "setting": "motif only", "measurement": "Kd", "result": "1590 nM"}
{"Substance": "ENDPIGLEW", "target or system": "Jurkat expressing engineered TCR", "test": "NFAT-eGFP reporter, fluorescence microscopy", "system": "peptide", "setting": "concentration not given, HLA-A*01:01 on EL4 cells", "measurement": "GFP-positive cells", "result": "0.607%"}
{"Substance": "B4 (ATP synthase subunit O, human)", "target or system": "CYB5R4 knockout human cells", "test": "PP4 interaction, 3xFLAG-PP4C IP-MS", "setting": "concentration not given", "how to read": "relative to: CYB5R4 KO over parental", "measurement": "log2 fold change", "result": 0.0255}
{"Substance": "GADPIQLGY", "target or system": "Jurkat expressing engineered TCR", "test": "NFAT-eGFP reporter, fluorescence microscopy", "system": "peptide", "setting": "concentration not given, HLA-A*01:01 on EL4 cells", "measurement": "GFP-positive cells", "result": "0.517%"}
{"Substance": "epoetin alfa", "target or system": "UT7/EPO", "test": "LC-MS/MS phosphoproteomics (trypsin), item: JAK2 phospho-Tyr1007,1008", "setting": "10 U/mL, 15 min", "how to read": "relative to: vehicle", "measurement": "phosphorylation", "result": "5.5 fold"}
{"Substance": "Ac-LRKLRKRLLRDWLKAFYDKVAEKLKEAF-NH2 (N-acetyl, C-amide)", "target or system": "THP-1 macrophages", "system": "peptide", "setting": "5 µg/mL, with: [3H]-cholesterol loading", "how to read": "relative to: control", "measurement": "cholesterol efflux", "result": "10%"}
{"Substance": "CTCGCTCCATCTCCAGAACTACAAGTCCCAGAGTGTCAAGTCAATCGGTCC (dsDNA; 5'-amino-C6 primer)", "target or system": "SPT15 full length assumed (Saccharomyces cerevisiae, UniProt P13393)", "test": "array", "system": "double-stranded DNA, one strand shown", "setting": "TBP alone", "measurement": "Kd", "result": "5.57 ± 0.4 nM"}
{"Substance": "GUCUUUUUG (ssRNA)", "target or system": "U2AF2", "test": "sequencing of bound RNA", "system": "RNA", "setting": "motif only", "measurement": "Kd", "result": "9340 nM"}
{"Substance": "KSDPITSSY", "target or system": "Jurkat expressing engineered TCR", "test": "NFAT-eGFP reporter, fluorescence microscopy", "system": "peptide", "setting": "concentration not given, HLA-A*01:01 on EL4 cells", "measurement": "GFP-positive cells", "result": "0.508%"}
{"Substance": "B5", "target or system": "CYB5R4 knockout human cells", "test": "PP6 interaction, 3xFLAG-PP6C IP-MS", "setting": "concentration not given", "how to read": "relative to: CYB5R4 KO over parental", "measurement": "log2 fold change", "result": -0.98}
{"note": "A few entries again:"}
{"Substance": "UUGUUUUGC (ssRNA)", "target or system": "U2AF2", "test": "sequencing of bound RNA", "system": "RNA", "setting": "motif only", "measurement": "Kd", "result": "1590 nM"}
{"Substance": "B3 (human ADP/ATP translocase 4)", "target or system": "CYB5R4 knockout human cells", "test": "PP4 interaction, 3xFLAG-PP4C IP-MS", "setting": "concentration not given", "how to read": "relative to: CYB5R4 KO over parental", "measurement": "log2 fold change", "result": -0.79}
